Assay results from different studies.
Each line is one published result; not all experiments were run side by side. ± gives the spread as reported.
AGER: Advanced glycosylation end product-specific receptor (AGER, Homo sapiens, UniProt Q15109)
GSTO1: Glutathione S-transferase omega-1 (GSTO1, Homo sapiens, UniProt P78417)
Succinate dehydrogenase complex: Succinate dehydrogenase complex (Sus scrofa, UniProt A5GZW8+D0VWV4+Q007T0+Q0QF01)

| Structure (SMILES) | target | assay | system | conditions | inhibition |
| --- | --- | --- | --- | --- | --- |
| O=C(O)c1cc(/N=N/c2ccccc2)c2ccccc2c1O | GLO1 (Homo sapiens, UniProt Q04760) | enzyme activity, inhibitor | – | 25 µM | 90% |
| COC(=O)CCSc1nc2n(n1)C(c1cccc(OC)c1)C(C(=O)Nc1cncc(C)c1)=C(C)N2 (stereo not shown) | MTOR (Homo sapiens, UniProt P42345) | enzyme activity, inhibitor, TR-FRET | – | 10 nM | 54.7% |
| Cc1ccc(-c2nc(SCc3cn(CC(=O)NC(=O)Nc4ccccn4)nn3)nc(Nc3cccc(C(F)(F)F)c3)c2C#N)cc1 | MAOA (Homo sapiens, UniProt P21397) | enzyme activity, inhibitor, luciferase | – | 100 µM | < 5% |
| CCOc1c(C(C)(C)O)sc2cnc(Nc3ccc(N4CCC(N5CC6(COC6)C5)CC4)cc3OC)nc12 | CAMK2D (Homo sapiens, UniProt Q13557) | enzyme activity, inhibitor | – | 0.1 µM | 99% |
| CC(=O)N[C@H]1NC[C@H](C(=O)O)[C@H](O)[C@@H]1O | Sialidase-2 (Homo sapiens, UniProt Q9Y3R4) | enzyme activity, inhibitor | – | 600 µM, pH 4 | 64% |
| COc1cc(N(C(=O)c2cc3ccc(Cl)cc3s2)c2ccc(OCCN3CCCC3)cc2)cc(OC)c1OC | AGER | binding to AGE-BSA, competitive ELISA | – | 100 µM, 60 min | 49% |
| O=C(NC1CCCCC1)C(c1cccnc1)N(C(=O)CCl)c1ccc(F)cc1 (racemic) | GSTO1 | probe labelling, gel-based competitive ABPP | MDA-MB-435 soluble proteome | 1000 nM, with: SE-Rh probe | 100% |
| O=C(Nc1ccccc1Nc1ccccc1)c1cccnc1C(F)(F)F | Succinate dehydrogenase complex | enzyme activity, double-antibody sandwich ELISA | – | 1 µM | 25.1% |
| COc1cc(C(=O)NC2CCC(N3CCN(CC4CCC5(CCCC5)C4)CC3)CC2)c(F)cc1Nc1ncc2c(n1)N(C1CCCC1(F)F)CC(F)(F)C(=O)N2C (stereo not shown) | EPHA6 (Homo sapiens, UniProt Q9UF33) | cell-free assay, TR-FRET | – | 10 µM | 4.17% |
| N#Cc1ccc(O)c(O)c1 | lecA (Pseudomonas aeruginosa, UniProt Q05097) | binding inhibitor, fluorescence polarization | – | 4000 µM, 4 mM catechol, with: Cy5 galactoside tracer | 4 ± 1% |
| O=C(O[C@@H]1Cc2c(O)cc(O)cc2O[C@@H]1c1cc(O)c(O)c(O)c1)c1cc(O)c(O)c(O)c1 | maltase, rat | enzyme activity, inhibitor | rat intestinal brush border vesicles | 10 µM | 98.7% |
| O=C(Nc1ccc(Oc2ccc(F)cc2)cc1)c1cc2ccc(Cl)cc2s1 | AGER | binding to AGE-BSA, competitive ELISA | – | 100 µM, 60 min | ≤ 52% |
| O=C1CSC(c2cccc(Br)c2)N1c1cc(Cl)ccc1O (stereo not shown) | ACTR2/ACTR3 (Bos taurus, UniProt A7MB62+P61157) | actin polymerization rate, pyrenyl-actin | – | concentration not given | inhibited |
| Oc1ccc(CCC(O)CC(O)CCc2ccc(O)cc2)cc1 (stereo not shown) | Maoa (Rattus norvegicus, UniProt P21396) | enzyme activity, inhibitor | – | 100 µg/mL, with: serotonin substrate | 33.2 ± 0.6% |
| COc1ncccc1C(=O)Nc1ccccc1Nc1ccccc1 | Succinate dehydrogenase complex | enzyme activity, double-antibody sandwich ELISA | – | 8 µM | 53.6% |
| CC1CCc2c(c(-c3c[nH]nc3C(F)(F)F)nc3ccc4[nH]ncc4c23)C1 (stereo not shown) | FLT3 (Homo sapiens, UniProt P36888, ITD) | enzyme activity, inhibitor, ADP detection | – | 0.1 µM | 77% |
| Clc1ccc2ccc3[n+](c2c1)[Ir-3]12([c]4ccccc4-3)([c]3ccccc3-c3ccc4ccc(Cl)cc4[n+]31)[n+]1ccccc1-c1cccc[n+]12.F[P-](F)(F)(F)(F)F | Cyclin-dependent kinase 9, with cyclin T1 (CDK9, Homo sapiens, UniProt P50750) | kinase activity | – | 10 nM | 55.9% |
| COc1ccc(C[C@H](NC(=O)[C@H](C)NC(=O)CN2CCOCC2)C(=O)N[C@@H](Cc2ccccc2)C(=O)C2(C)CO2)cc1 (stereo in doubt) | Proteasome subunit beta type-5 (Babesia divergens, UniProt A0AAD9GDK3) | proteasome activity | Babesia divergens, parasite lysate | 1 µM, with: Suc-LLVY-AMC substrate | > 90% |
| COc1ccc(N(CCNC(=O)C(F)(F)F)C(=O)CCl)cc1 | GSTO1 | probe labelling, gel-based competitive ABPP | MDA-MB-435 soluble proteome | 100 nM, with: SE-Rh probe | 20% |

A few entries again:
| Structure (SMILES) | target | assay | system | conditions | inhibition |
| --- | --- | --- | --- | --- | --- |
| Oc1ccc(CCC(O)CC(O)CCc2ccc(O)cc2)cc1 (stereo not shown) | Maoa (Rattus norvegicus, UniProt P21396) | enzyme activity, inhibitor | – | 100 µg/mL, with: serotonin substrate | 33.2 ± 0.6% |
